Published values pooled from the literature.
Numbers after ± are the reported error.

SMILES	target	assay	test system	conditions	IC50
COc1cc(CCC(C)=O)ccc1O	mAb 5-D8	antibody binding, indirect competitive ELISA		added: coating antigen hapten 3-OVA	> 4 µg/mL
CN[C@@H]1[C@H](O)[C@H](NC)[C@H]2O[C@]3(O)[C@H](O[C@@H]2[C@H]1O)O[C@H](C)C[C@@]3(O)CNCCc1nccs1	Mycolicibacterium smegmatis ribosome	cell-free translation			970 ± 370 nM
CCCCC/C=C/C(=O)CCc1ccc(O)c(OC)c1	mouse mAb 1-D6	antibody binding, indirect competitive ELISA		added: coating antigen 5-OVA	0.0718 µg/mL
CCc1c(-c2ccc(O)cc2)nn(-c2ccc(O)cc2)c1-c1ccc(OCCN2CCCCC2)cc1	TLR9	TNF-alpha production, antagonist, ELISA	RAW264.7	6 h, added: CpG-DNA 1 µM	2850 ± 50 nM
CN[C@@H]1[C@H](O)[C@H](NC)[C@H]2O[C@]3(O)[C@H](O[C@@H]2[C@H]1O)O[C@H](C)C[C@@]3(O)CNCc1ccc(F)cc1	Mycolicibacterium smegmatis ribosome	cell-free translation			1180 ± 380 nM
O=C(Nc1ccc(S(=O)(=O)Nc2nccs2)cc1)c1cc(-c2ccco2)nc2ccccc12	ChREBP human	reporter gene, inhibitor, LPK promoter luciferase	HepG2	added: high glucose	~1000 nM
CN[C@@H]1[C@H](O)[C@H](NC)[C@H]2O[C@]3(O)[C@H](O[C@@H]2[C@H]1O)O[C@H](C)C[C@@]3(O)CNCCc1ccccc1	Mycolicibacterium smegmatis ribosome	cell-free translation			930 ± 390 nM
C#CCOCCOCCOCCOCCn1cc(C(ONC(=O)/C=C/C(C)=C/C2(C)Oc3cc(N(C)C)ccc3C2=O)(c2ccc(C)cc2)c2ccc(C)cc2)nn1 (stereo not drawn)	HDAC	histone acetylation, inhibitor, BRET	MeT-5A	16 h	500 nM
Oc1ccc(-c2cc(-c3ccc(OCCCN4CCCCC4)cc3)n(-c3ccc(O)cc3)n2)cc1	TLR4 (mouse)	TNF-alpha production, inhibitor	RAW264.7	6 h, added: LPS 10 ng/mL	9260 ± 360 nM
CN[C@@H]1[C@H](O)[C@H](NC)[C@H]2O[C@]3(O)[C@H](O[C@@H]2[C@H]1O)O[C@H](C)C[C@@]3(O)CNCCc1ccc(C)cc1	Mycolicibacterium smegmatis ribosome	cell-free translation			1430 ± 410 nM
Oc1ccc(-c2cc(-c3ccc(OCCN4CCCCC4)cc3)n(-c3ccc(O)cc3)n2)cc1	TLR4 (mouse)	TNF-alpha production, inhibitor	RAW264.7	6 h, added: LPS 10 ng/mL	8670 ± 120 nM
COC(=O)c1ccc2c(c1)NC(=O)/C2=C(\Nc1ccc(N(C)C(=O)CN2CCN(CCOCCOCCNC(=O)c3cc(OCc4cn(CCCCN5C[C@@H]6C[C@H]5C(=O)N[C@@H](CC(C)C)C(=O)N[C@@H](CCCNC(=N)N)C(=O)NCC(=O)N[C@@H](CC(=O)O)C(=O)N[C@@H](CC(C)C)C(=O)N6)nn4)cc(OCc4cn(CCCCN5C[C@@H]6C[C@H]5C(=O)N[C@@H](CC(C)C)C(=O)N[C@@H](CCCNC(=N)N)C(=O)NCC(=O)N[C@@H](CC(=O)O)C(=O)N[C@@H](CC(C)C)C(=O)N6)nn4)c3)CC2)cc1)c1ccccc1	integrin αVβ6 (mouse)	cell adhesion to fibronectin	L929	30 min preincubation	< 1000 nM
